Published values pooled from the literature.
Each numbered part is a random draw from the data of one study; scales do not carry over between parts.

Series 1 — technique: protein binding microarray; form: double-stranded DNA, one strand shown; sample: in vitro; concentration: not given; baseline: not given; direction: higher = stronger binding; quantity: E-score
Target: Histone acetyltransferase KAT6A, winged helix 2, GST fusion (KAT6A, Homo sapiens, UniProt Q92794, residues 85-181)
Notes: 8-mer, flanks averaged, mean of 2 arrays, mostly near background
Residues (chain): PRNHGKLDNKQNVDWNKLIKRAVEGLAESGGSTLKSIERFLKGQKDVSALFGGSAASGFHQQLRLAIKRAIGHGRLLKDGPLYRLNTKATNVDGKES
ATTGGGTA: -0.131
TCGCATAA: -0.0666
GGAACCCA: 0.0364
CAAAGTAC: 0.0343

Series 2 — technique: RNA Bind-n-Seq; form: RNA; sample: in vitro; concentration: 365 nM; baseline: no-protein control; direction: higher = stronger binding; quantity: RBNS enrichment (R)
Target: RNA binding protein fox-1 homolog 2, RRM domain, GST-SBP tag (RBFOX2, Homo sapiens, UniProt O43251-10, residues 100-194)
Notes: natural RNA segment, single round, ends assumed
Construct (chain): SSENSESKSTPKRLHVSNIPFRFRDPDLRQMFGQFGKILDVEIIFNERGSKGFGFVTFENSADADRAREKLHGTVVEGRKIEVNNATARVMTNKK
GGGAGUUCUACAGUCCGACGAUCUCAAAAGCUUGGCUUUAAAGUCUAAGGGAGUUUUAGAUCAAAAACUAGCUAUCACUUCCUGAGUGUCUCAUGUAGCCACUCAGGCUCCCAGGAGUUUCCUGAGGUAGGUUUGGAAUUCUCGGGUGCCAA: 0.219
GGGAGUUCUACAGUCCGACGAUCAUCCCCAGGUAGGGGGACGUUGGUUAUAUUCUGUUAGAGGGGGACGGUCGUAUUUUCCUCCCUACCCGCCAAGUCAUCCUUUCUACUGCUUUUGAGGCCCUCCCUCAGCUUGGAAUUCUCGGGUGCCAA: 0.376
GGGAGUUCUACAGUCCGACGAUCCUCCCCCUUCCUCCCUUUCCCCAUCCAGGGGCUGUGUAUUAUUGUGAGCGAAUAAACAGAGAGACGCAAUAUUACCCCAGCUAUUGACUGCCCACCCUGAGUGAUCAGAGUGGAAUUCUCGGGUGCCAA: 0.602

Series 3 — technique: protein-binding microarray; form: double-stranded DNA, one strand shown; sample: in vitro; concentration: 2200 nM top; notes: 60-bp whole probe; together with: salmon DNA 0.4 mg/ml; baseline: random background probes; direction: higher = stronger binding; quantity: fitted relative affinity
Target: Interferon regulatory factor 7, full length, phosphomimetic (IRF7, Homo sapiens, UniProt Q92985, residues 1-503, S471D/S472D/S475D/S476D/S477D/S483D/S484D/S487D)
Sequence of UniProt Q92985 (whole entry, unmodified, looked up): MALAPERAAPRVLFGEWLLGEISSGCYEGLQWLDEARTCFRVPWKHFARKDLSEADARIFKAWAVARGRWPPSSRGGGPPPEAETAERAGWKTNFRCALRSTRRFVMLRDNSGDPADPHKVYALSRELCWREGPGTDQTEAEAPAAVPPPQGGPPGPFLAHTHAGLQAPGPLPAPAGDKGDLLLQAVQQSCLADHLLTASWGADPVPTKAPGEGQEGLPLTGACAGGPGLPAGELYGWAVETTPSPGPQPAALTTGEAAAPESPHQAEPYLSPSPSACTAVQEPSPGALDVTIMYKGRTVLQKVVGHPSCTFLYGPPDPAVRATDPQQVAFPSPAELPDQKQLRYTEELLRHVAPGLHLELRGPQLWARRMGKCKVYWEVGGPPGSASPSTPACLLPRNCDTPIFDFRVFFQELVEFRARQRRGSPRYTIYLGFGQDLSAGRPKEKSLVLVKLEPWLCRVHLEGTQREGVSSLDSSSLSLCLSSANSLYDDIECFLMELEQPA
GCCTAGCACTTAGAACTGGGGTATCCATTAGTGCTAGTCTTGATTCGCTTGACGCTGCTG: -0.17 z-score
GCCTAGCACTTAGATATCAGTTTCGATAAGTGCTAGGTCTTGATTCGCTTGACGCTGCTG: 2.7 z-score
GCCTAGCACTTGGGTTTCGACTATCGGTTAGTGCTAGTCTTGATTCGCTTGACGCTGCTG: 3 z-score
GCCTAGCACGACGGACTGCTACTCCTGACGTGCTAGGTCTTGATTCGCTTGACGCTGCTG: 0.423 z-score

Single results of other studies
PhoQ, residues 284 288 289 292 302 303 SVTLVV — fold induction (PhoP, residues 12 14 15 18 19 IQSYL (Escherichia coli, UniProt P23836); Sort-seq, refers to: YFP reporter; E. coli; PhoQ-PhoP variant library, together with: 10 µM Mg2+; baseline: high Mg2+ state, higher = stronger signaling): 6.99

Excerpt of the above (series 1):
GGAACCCA: 0.0364
TCGCATAA: -0.0666
